Results pooled from the literature.
Protocols differ between the studies behind these lines. ± gives the spread as reported.

O=C([O-])CN1CCN(CC(=O)[O-])CCN(CC(=O)NCCc2ccc3c(c2)C2C=CCC2C(c2cc4c(cc2Br)OCO4)N3)CCN(CC(=O)[O-])CC1.[111In+3] (stereo not shown) gave a tissue uptake of 3.95 ± 0.43 %ID/g (mouse, Hec50 endometrial tumour, kidneys; 1 h post injection).
With CCCC[C@H](NC(=O)CNC(=O)CNC(=O)CN1CCN(CC(=O)O)CCN(CC(=O)O)CC1)C(=O)N[C@H]1CC(=O)NCCCC[C@@H](C(N)=O)NC(=O)[C@H](Cc2c[nH]c3ccccc23)NC(=O)[C@H](CCCNC(=N)N)NC(=O)[C@@H](Cc2ccccc2)NC(=O)[C@H](Cc2c[nH]cn2)NC1=O [gallium-67 labelled] the tissue uptake was 1.62 ± 0.63 %ID/g (female C57 mice, B16/F1 melanoma, stomach; intravenous, 0.037 MBq, 2 h).
CCCC[C@H](NC(=O)CNC(=O)CNC(=O)CN1CCN(CC(=O)O)CCN(CC(=O)O)CC1)C(=O)N[C@H]1CC(=O)NCCCC[C@@H](C(N)=O)NC(=O)[C@H](Cc2c[nH]c3ccccc23)NC(=O)[C@H](CCCNC(=N)N)NC(=O)[C@@H](Cc2ccccc2)NC(=O)[C@H](Cc2c[nH]cn2)NC1=O [copper-64 labelled] has a tissue uptake of 1.59 ± 0.19 %ID/g (female C57 mouse, B16/F1 melanoma, blood; intravenous, 0.037 MBq, 0.5 h).
With CCCC[C@@H]1NC(=O)[C@@H](NC(=O)[C@H](CCC(=O)O)NC(=O)CNC(=O)CN2CCN(CC(=O)O)CCN(CC(=O)O)CCN(CC(=O)O)CC2)CCCCNC(=O)C[C@@H](C(N)=O)NC(=O)[C@H](C(C)C)NC(=O)[C@@H]2CCCN2C(=O)[C@H](CCCNC(=N)N)NC(=O)CNC(=O)[C@H](Cc2c[nH]c3ccccc23)NC(=O)[C@H](CCCNC(=N)N)NC(=O)[C@@H](Cc2ccccc2)NC(=O)[C@H](Cc2c[nH]cn2)NC(=O)[C@H](CCC(=O)O)NC1=O [gallium-67 labelled] the tissue uptake was 0.01 %ID/g (C57 mice, B16/F1 flank melanoma, brain; intravenous, 2 h, with: blocking peptide 10 µg).
CN1C(=O)[C@@H](Cc2ccc(O)c(I)c2)NC(=O)CNC(=O)[C@H](Cc2ccc3ccccc3c2)NC(=O)[C@H](CCCNC(=N)N)NC(=O)[C@H]1CCCNC(=O)c1ccc(CNC(=O)CN2CCN(CC(=O)O)CCN(CC(=O)O)CCN(CC(=O)O)CC2)cc1 [lutetium-177 labelled] has a tissue uptake of 1.27 ± 0.43 %ID/g (refers to: 177Lu radioactivity; female CB-17 SCID mice, Daudi xenograft, spleen; intravenous, 0.16 nmol per mouse, 96 h).
OCc1cn(Cc2ccc(-c3noc(-c4ccc(OCC[18F])c(C(F)(F)F)c4)n3)cc2)nn1 gave a tissue uptake of 2.79 ± 0.57 %ID/g (female Lewis rat, lung; intravenous, 5 min).
O=C(O)C1CN(Cc2ccc(-c3noc(-c4ccc(OCC[18F])c(C(F)(F)F)c4)n3)cc2)C1 gave a tissue uptake of 5.08 ± 0.324 %ID/g (male Sprague-Dawley rat, liver; intravenous, 60 min).
For CCCC[C@H](NC(=O)CNC(=O)CNC(=O)CN1CCN(CC(=O)O)CCN(CC(=O)O)CCN(CC(=O)O)CC1)C(=O)N[C@H]1CC(=O)NCCCC[C@@H](C(N)=O)NC(=O)[C@H](Cc2c[nH]c3ccccc23)NC(=O)[C@H](CCCNC(=N)N)NC(=O)[C@@H](Cc2ccccc2)NC(=O)[C@H](Cc2c[nH]cn2)NC1=O [copper-64 labelled], the tissue uptake was 7.23 ± 0.58 %ID/g (female C57 mouse, B16/F1 melanoma, liver; intravenous, 0.037 MBq, 24 h).
C[C@H](CN(C)Cc1ccccc1)NC(=O)c1ccc(-c2noc(C(F)(F)[18F])n2)cc1 has a tissue uptake of 0.59 ± 0.17 SUV (PET imaging; female Sprague-Dawley rats, muscle; intravenous, 10 min).
CC(C)[C@H](NC(=O)[C@@H]1CCCN1C(=O)[C@H](CCCNC(=N)N)NC(=O)[C@H](CS)NC(=O)[C@H](Cc1c[nH]c2ccccc12)NC(=O)[C@H](CCCNC(=N)N)NC(=O)[C@@H](Cc1ccccc1)NC(=O)[C@H](Cc1c[nH]cn1)NC(=O)[C@H](CCC(=O)O)NC(=O)[C@H](CS)NC(=O)[C@H](CS)NC(=O)[C@@H]1CC(=O)N[C@@H](CCCNC(=N)N)C(=O)NCC(=O)N[C@@H](CC(=O)O)C(=O)N[C@H](Cc2ccc(O)cc2)C(=O)N1)C(N)=O [technetium-99m labelled] gave a tissue uptake of 3.09 ± 1.13 %ID/g (C57 mouse, female, B16/F1 melanoma, heart; intravenous, 0.037 MBq, 0.5 h).
CCCC[C@H](NC(=O)CNC(=O)CNC(=O)CN1CCN(CC(=O)O)CCN(CC(=O)O)CCN(CC(=O)O)CC1)C(=O)N[C@H]1CC(=O)NCCCC[C@@H](C(N)=O)NC(=O)[C@H](Cc2c[nH]c3ccccc23)NC(=O)[C@H](CCCNC(=N)N)NC(=O)[C@@H](Cc2ccccc2)NC(=O)[C@H](Cc2c[nH]cn2)NC1=O [lead-203 labelled] gave a tissue uptake of 0.17 ± 0.11 %ID/g (C57 mouse, skin; intravenous, 0.056 MBq, 24 h).
The tissue uptake of CC(C)[C@H](NC(=O)[C@@H]1CCCN1C(=O)[C@H](CCCNC(=N)N)NC(=O)[C@H](CS)NC(=O)[C@H](Cc1c[nH]c2ccccc12)NC(=O)[C@H](CCCNC(=N)N)NC(=O)[C@@H](Cc1ccccc1)NC(=O)[C@H](Cc1c[nH]cn1)NC(=O)[C@H](CCC(=O)O)NC(=O)[C@H](CS)NC(=O)[C@H](CS)NC(=O)CNC(=O)[C@@H]1CC(=O)N[C@@H](CCCNC(=N)N)C(=O)NCC(=O)N[C@@H](CC(=O)O)C(=O)N[C@H](Cc2ccc(O)cc2)C(=O)N1)C(N)=O [technetium-99m labelled] is reported as 5.55 ± 0.89 %ID/g (C57 mouse, female, B16/F1 melanoma, tumor; intravenous, 0.037 MBq, 24 h).
O=C([O-])CN1CCN(CC(=O)[O-])CCN(CC(=O)[O-])CCN(CC(=O)[O-])CC1.[64Cu+2] gave a tissue uptake of 0.48 %ID/g (healthy athymic nude mice, spleen; intravenous, 24 h).
